# Measurements of several laboratories.
# Parts stem from different laboratories: compare values within a part only. Positions count from the first letter of the parent shown.

# Study 1 — target: CCNB2, cyclin fold, Cln2 fusion (human); method: yeast growth competition, sequencing; matrix: yeast; setting: strong parent motif; reference: not given; reading: higher = stronger binding
# Starting sequence: viral docking peptide; YKVKRRLVFGADD; partner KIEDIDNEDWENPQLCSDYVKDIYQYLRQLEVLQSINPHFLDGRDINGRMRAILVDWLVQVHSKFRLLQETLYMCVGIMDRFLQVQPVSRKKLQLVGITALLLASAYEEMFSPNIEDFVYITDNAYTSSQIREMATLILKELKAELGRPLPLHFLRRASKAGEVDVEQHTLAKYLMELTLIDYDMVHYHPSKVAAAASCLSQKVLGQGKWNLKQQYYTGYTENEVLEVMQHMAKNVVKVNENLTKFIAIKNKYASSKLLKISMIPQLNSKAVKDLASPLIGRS
Variant,normalised enrichment score
L7E,0.313
K2Y,1.38
A11H,1.5
G10R,1.67
K2A,1.79
A11E,2.76
R5Y,0.383
V8T,2.15
V8D,3.58
K4F,-0.386
G10C,1.82
R6N,0.562
D12E,1.66
F9A,-0.0964
R6W,0.0989

# Study 2 — method: DHFR PCA, dose-response; matrix: yeast; setting: Hill fit, mean, not affinity; together with: (+)-ABA, dose series; reading: lower = more sensitive
# Target: ABI1, truncated, D143A, DHFR fusion (Arabidopsis thaliana, UniProt P49597)
# Starting sequence: PYL1, truncated, DHFR fusion (Arabidopsis thaliana, UniProt Q8VZS8); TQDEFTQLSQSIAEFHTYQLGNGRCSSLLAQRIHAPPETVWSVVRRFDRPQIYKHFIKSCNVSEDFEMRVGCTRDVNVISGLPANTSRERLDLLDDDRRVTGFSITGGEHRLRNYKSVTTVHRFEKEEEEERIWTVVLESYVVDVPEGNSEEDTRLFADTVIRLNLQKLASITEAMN
Variant,ABA EC50 [µM]
G107M,113
E147K,3.82
C25S,18.9
A170E,50.1
W134V,2.1
V142Q,1.53
P50A,213
T106E,9.02

# Study 3 — method: RNA Bind-n-Seq; molecule type: RNA; matrix: in vitro; tested at: 200 nM; setting: whole 134-nt RNA, ends assumed; together with: 150 mM KCl; reference: input library; reading: higher = stronger binding
# Target: Ras GTPase-activating protein-binding protein 1, full length (G3BP1, Homo sapiens, UniProt Q13283)
# Chain of UniProt Q13283 (whole entry, looked up): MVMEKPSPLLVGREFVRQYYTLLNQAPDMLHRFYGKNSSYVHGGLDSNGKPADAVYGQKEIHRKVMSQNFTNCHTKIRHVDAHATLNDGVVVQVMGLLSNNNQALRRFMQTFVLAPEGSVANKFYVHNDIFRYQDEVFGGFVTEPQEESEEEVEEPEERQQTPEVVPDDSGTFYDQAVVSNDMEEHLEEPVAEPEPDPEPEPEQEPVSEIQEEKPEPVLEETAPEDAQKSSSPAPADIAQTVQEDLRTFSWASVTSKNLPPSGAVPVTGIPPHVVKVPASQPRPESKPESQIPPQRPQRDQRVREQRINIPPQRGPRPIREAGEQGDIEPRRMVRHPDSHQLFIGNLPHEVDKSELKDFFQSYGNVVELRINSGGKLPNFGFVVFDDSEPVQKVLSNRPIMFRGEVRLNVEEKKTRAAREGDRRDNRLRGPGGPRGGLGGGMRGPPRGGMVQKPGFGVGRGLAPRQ
# Shared flanks, not repeated: GGGAGUUCUACAGUCCGACGAUC … UGGAAUUCUCGGGUGUCAAGG
Oligonucleotide,log2 enrichment
CAAGUCCUGUGCUACACAUCGUAUGUACCGAAUCGGGGAAAGGAAAGGGAAAGGGAAAGUAUUAUGUUACGCCGUUCGGAUCUGCACUUC,0.0219
UUCGACGAAACAAUUCGAAAGCCCAUCAGUUUGGGUUGUGGCCAUACUGUCUGCAAGAUGUGCCUGAAUAAACUCCACCGCAAGGCUUGC,0.143
UGGGAGGUGGAUUUUGUUUAUUUUUUUGGCUCAUUUCCAGGGGUGGGAAUUUUUUUUUAAUAUGUGUCAUGAAUAAAGUUGUUUUUGAAA,0.0351
GUCCUGUGCUACACAUCGUAUGUACCGAAUCGGAAAAAAAGGUUUUUGGAAAAAAAGGAAAGUAUUAUGUUACGCCGUUCGGAUCUGCAC,-1.35
UGGGAGGUGGAUUUUGUUUAUUUUUUUAGCUCAUUUCCAGGGGUGGGAAUUUUUUUUUAAUAUGUGUCAUGAACAAAGUUGUUUUUGAAA,0.362
CACAGACAACACCCACCCACACAGACACAGAGGGAAGGGGUUGGGAUGGGGACAGGGUGCACAGCAGGGCGGGGUAGGACCCCAGCCCCU,2.03
CAAGUCCUGUGCUACACAUCGUAUGUACCGAAUCGGUUUUUGGAAAAAGGAAAGGAAAGUAUUAUGUUACGCCGUUCGGAUCUGCACUUC,-0.935
UGUGCUACACAUCGUAUGUACCGAAUCGGGGAAAAAGGGGUUUUUUUGGGGAAAAAAAGGGGAAAGUAUUAUGUUACGCCGUUCGGAUCU,-0.308

# Other studies, line by line
# Starting sequence: PafA, mature enzyme, eGFP fusion (Elizabethkingia meningoseptica, UniProt Q9KJX5); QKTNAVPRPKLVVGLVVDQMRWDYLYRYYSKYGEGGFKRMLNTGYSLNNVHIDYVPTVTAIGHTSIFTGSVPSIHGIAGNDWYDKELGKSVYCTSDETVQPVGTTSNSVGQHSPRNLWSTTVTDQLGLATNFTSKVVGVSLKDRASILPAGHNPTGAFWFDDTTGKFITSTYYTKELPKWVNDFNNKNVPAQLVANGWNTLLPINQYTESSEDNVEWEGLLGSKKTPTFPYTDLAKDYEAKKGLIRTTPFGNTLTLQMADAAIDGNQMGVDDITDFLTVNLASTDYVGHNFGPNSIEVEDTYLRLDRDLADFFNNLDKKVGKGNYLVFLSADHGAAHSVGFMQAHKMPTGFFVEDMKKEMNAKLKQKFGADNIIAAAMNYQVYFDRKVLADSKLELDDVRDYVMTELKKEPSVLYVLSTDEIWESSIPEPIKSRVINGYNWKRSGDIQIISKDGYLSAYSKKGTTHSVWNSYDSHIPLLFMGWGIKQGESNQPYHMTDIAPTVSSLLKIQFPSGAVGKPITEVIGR
Variant,target,test,test system,setting,how to read,measurement,value
P9G,"vanadate, free oxyanion",microfluidic competitive inhibition,"in vitro, cell-free expressed","not given, derived from inhibition constants, unchanged parent 676 nM",lower = stronger binding,oxyanion analog dissociation constant,986 nM

# A few entries again (study 2):
Variant,ABA EC50 [µM]
W134V,2.1
V142Q,1.53
